# Measurements gathered from unrelated publications.
# Each line is one published result; not all experiments were run side by side. Numbers after ± are the reported error.
# MSP: Male-specific submandibular salivary gland protein (MSP, Mesocricetus auratus, UniProt Q9QXU1)
# UniProt Q9QXU1, sequence (whole entry, looked up): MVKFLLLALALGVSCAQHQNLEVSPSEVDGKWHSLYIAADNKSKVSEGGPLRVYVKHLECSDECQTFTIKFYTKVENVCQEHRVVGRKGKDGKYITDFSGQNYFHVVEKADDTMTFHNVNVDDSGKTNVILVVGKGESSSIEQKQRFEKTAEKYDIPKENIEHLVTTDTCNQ
# HRH1: Histamine H1 receptor (HRH1, Homo sapiens, UniProt P35367)
# UniProt P35367, sequence (whole entry, looked up): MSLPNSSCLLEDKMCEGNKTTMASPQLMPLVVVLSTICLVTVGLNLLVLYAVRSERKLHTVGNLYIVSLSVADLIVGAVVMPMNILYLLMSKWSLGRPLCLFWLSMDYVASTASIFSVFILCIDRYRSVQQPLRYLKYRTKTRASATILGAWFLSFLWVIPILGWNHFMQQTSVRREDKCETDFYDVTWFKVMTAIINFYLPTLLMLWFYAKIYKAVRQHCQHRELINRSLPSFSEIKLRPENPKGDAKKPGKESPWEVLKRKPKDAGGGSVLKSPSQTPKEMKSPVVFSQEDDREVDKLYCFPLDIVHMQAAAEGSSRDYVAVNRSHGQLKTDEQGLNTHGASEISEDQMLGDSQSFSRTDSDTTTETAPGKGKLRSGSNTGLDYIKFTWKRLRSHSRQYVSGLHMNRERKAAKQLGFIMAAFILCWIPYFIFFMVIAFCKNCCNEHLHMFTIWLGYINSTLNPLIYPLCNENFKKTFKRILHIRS
# Drd3: D(3) dopamine receptor (Drd3, Rattus norvegicus, UniProt P19020)
# UniProt P19020, sequence (whole entry, looked up): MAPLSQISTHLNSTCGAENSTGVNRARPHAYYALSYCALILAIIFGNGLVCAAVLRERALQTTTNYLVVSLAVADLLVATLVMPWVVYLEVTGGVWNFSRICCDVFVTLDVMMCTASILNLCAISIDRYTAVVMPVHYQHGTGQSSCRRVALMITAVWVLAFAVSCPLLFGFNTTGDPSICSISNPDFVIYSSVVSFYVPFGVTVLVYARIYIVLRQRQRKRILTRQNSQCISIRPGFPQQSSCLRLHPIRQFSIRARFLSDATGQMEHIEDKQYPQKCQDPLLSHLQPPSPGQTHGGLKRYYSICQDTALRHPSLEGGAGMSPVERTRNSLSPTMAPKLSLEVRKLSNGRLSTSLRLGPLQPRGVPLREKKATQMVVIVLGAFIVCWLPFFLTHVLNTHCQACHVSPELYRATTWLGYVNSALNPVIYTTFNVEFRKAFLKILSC
# Na(+)/H(+) exchange regulatory cofactor NHE-RF2 PDZ domain 2: Na(+)/H(+) exchange regulatory cofactor NHE-RF2, PDZ domain 2 (Homo sapiens, UniProt Q15599)
# UniProt Q15599, sequence (whole entry, looked up): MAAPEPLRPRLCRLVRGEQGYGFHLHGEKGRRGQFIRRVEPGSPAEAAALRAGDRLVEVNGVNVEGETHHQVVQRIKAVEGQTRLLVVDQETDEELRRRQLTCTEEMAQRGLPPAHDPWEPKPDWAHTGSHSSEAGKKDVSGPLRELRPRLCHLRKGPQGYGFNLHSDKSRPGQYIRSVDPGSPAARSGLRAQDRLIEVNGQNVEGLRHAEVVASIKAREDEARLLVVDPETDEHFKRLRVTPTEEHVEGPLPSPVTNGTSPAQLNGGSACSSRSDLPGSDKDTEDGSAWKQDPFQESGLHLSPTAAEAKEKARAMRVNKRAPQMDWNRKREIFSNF
# DXR: 1-deoxy-D-xylulose 5-phosphate reductoisomerase, apicoplastic (DXR, Plasmodium falciparum, UniProt O96693)
# UniProt O96693, sequence (whole entry, looked up): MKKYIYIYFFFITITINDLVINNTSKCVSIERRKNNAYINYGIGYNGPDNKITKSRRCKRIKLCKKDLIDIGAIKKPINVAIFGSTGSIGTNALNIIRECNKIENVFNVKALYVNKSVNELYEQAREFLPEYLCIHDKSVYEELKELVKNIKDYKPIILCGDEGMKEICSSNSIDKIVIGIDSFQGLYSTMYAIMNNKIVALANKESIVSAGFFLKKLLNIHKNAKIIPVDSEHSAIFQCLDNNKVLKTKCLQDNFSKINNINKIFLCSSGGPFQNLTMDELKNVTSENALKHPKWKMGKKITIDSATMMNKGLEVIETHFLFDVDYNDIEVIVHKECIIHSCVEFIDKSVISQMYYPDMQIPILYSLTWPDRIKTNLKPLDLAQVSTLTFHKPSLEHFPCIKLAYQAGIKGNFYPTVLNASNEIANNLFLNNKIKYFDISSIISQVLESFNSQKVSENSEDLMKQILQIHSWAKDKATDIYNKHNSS
# APEX1: DNA repair nuclease/redox regulator APEX1 (APEX1, Homo sapiens, UniProt P27695)
# UniProt P27695, sequence (whole entry, looked up): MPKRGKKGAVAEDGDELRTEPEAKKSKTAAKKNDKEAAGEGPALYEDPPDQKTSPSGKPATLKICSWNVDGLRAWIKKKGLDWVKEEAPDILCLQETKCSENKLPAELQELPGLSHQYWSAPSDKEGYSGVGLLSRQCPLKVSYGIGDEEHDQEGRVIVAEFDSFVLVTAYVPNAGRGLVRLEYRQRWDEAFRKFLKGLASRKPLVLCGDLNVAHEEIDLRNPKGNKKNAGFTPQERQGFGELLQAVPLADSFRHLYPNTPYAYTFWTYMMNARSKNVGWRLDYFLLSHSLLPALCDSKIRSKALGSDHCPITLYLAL
# UniProt P30542, sequence (whole entry, looked up): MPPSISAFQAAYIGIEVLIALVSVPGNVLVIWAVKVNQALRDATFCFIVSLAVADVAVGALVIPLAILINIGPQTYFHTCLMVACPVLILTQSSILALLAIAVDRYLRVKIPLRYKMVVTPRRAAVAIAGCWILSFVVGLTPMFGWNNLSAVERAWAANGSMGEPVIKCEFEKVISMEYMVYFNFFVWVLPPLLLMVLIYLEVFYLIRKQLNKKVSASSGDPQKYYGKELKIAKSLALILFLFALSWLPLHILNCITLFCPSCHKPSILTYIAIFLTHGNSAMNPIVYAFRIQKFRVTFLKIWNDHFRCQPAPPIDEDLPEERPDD
# UniProt Q16690, sequence (whole entry, looked up): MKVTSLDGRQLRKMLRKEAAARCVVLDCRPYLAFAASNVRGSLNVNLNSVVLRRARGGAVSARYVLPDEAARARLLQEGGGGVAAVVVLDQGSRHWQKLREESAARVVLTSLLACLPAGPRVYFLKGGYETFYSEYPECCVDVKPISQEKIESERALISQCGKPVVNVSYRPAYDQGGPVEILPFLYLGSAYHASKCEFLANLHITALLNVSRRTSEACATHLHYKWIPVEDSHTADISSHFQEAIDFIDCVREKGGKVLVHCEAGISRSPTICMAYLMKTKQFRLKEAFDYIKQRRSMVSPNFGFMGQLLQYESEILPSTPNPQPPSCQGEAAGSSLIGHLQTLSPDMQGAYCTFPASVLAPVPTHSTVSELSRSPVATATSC
# UniProt Q60492, sequence (whole entry, looked up): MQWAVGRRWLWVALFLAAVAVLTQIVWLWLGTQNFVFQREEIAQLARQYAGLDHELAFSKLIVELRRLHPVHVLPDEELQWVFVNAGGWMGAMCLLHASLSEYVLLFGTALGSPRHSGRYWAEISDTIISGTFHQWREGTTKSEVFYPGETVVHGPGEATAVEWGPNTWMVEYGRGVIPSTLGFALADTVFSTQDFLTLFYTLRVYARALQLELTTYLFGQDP
# UniProt P20272, sequence (whole entry, looked up): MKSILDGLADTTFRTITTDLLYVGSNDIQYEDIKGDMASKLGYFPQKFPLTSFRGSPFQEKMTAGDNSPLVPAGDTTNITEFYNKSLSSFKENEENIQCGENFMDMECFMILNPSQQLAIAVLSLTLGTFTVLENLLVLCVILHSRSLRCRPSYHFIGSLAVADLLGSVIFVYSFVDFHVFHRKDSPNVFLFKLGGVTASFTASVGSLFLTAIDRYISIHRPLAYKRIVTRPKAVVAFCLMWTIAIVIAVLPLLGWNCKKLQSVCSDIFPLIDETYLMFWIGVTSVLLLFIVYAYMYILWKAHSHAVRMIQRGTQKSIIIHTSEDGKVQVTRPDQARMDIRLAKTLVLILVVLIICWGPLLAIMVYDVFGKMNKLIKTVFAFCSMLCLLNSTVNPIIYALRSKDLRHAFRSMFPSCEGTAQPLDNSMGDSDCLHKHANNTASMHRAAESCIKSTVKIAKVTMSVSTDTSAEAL
# UniProt P08682, sequence (whole entry, looked up): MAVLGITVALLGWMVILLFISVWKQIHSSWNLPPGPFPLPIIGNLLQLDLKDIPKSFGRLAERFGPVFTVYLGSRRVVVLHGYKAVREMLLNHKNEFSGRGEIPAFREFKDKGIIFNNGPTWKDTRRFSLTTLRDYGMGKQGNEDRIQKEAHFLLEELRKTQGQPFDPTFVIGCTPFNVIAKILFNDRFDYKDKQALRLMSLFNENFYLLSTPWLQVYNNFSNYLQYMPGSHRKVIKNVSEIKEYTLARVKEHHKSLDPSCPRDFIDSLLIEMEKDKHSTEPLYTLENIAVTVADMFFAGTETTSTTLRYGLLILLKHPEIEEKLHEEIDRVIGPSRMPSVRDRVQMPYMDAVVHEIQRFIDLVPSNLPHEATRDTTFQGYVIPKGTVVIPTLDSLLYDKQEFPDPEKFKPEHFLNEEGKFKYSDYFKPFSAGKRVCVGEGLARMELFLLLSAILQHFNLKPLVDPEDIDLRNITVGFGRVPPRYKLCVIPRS
# UniProt P40495, sequence (whole entry, looked up): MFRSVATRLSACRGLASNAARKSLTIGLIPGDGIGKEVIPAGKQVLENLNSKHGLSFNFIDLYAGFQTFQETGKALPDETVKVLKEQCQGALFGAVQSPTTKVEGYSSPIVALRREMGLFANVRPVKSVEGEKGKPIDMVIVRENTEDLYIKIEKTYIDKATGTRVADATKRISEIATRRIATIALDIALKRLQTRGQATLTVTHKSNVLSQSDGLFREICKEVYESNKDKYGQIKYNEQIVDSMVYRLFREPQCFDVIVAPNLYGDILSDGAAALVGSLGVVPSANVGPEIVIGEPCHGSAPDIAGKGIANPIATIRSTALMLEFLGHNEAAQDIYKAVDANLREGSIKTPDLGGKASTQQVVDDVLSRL
# UniProt P47900, sequence (whole entry, looked up): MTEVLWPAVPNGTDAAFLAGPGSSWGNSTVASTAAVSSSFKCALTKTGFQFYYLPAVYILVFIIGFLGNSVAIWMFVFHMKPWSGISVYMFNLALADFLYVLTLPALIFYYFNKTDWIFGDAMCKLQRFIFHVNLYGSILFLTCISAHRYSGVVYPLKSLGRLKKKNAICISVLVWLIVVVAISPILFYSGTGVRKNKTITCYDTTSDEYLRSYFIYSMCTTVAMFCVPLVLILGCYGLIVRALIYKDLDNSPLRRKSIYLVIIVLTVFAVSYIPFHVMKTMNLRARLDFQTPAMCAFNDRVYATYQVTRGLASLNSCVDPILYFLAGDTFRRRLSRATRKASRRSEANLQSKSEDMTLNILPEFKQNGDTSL
SMILES,target,assay,system,conditions,Ki [µM]
Nc1ncnc2c1ncn2[C@@H]1O[C@H](COP(=O)(O)O)[C@@H](OP(=O)(O)O)[C@H]1O,"Protein-tyrosine sulfotransferase 2 (Homo sapiens, UniProt O60704)",competitive inhibitor,,"pH 7.5, 30 °C, product inhibition, with: PAPS",0.16
CC(C)CCCC(C)CCO (centres unmarked),MSP,"binding, fluorescence displacement",,with: 1-AMA 2 µM,0.17
CCCN(CCC1(O)CC(NC(=O)c2ccc(F)cc2)C1)[C@H]1CCc2nc(N)sc2C1 (stereo in doubt),"dopamine D1-like receptor, rat",radioligand binding,rat striatal membranes,with: [3H]SCH23390,50 ± 4.89
NC(C(=O)O)[C@@H]1CCN[C@H]1C(=O)O (relative stereo),"NMDA receptor, rat",binding,cortical synaptosomes,with: [3H]-CGP 39653,8.9
N=C(NCCCNC(N)=O)NCCCc1c[nH]cn1,HRH1,"ligand displacement, radioligand",,cell membranes,> 31.6
CCCN(CCC1(O)CC(NS(=O)(=O)c2ccc(Cl)cc2)C1)[C@H]1CCc2nc(N)sc2C1 (stereo in doubt),Drd3,"ligand displacement, radioligand",,cell membranes,0.0026
CC(C)[C@H](NC(=O)[C@@H](NC(=O)[C@@H](NC(=O)[C@H](CO)NC(=O)[C@H](Cc1ccccc1)NC(=O)[C@@H](N)CC(=O)O)[C@@H](C)O)[C@@H](C)O)C(=O)O,Na(+)/H(+) exchange regulatory cofactor NHE-RF2 PDZ domain 2,fluorescence polarization competition,,with: FITC-labelled LPA2 peptide tracer,54.8 ± 3
Nc1nc(Cl)nc2c1ncn2[C@@H]1O[C@H](CO)[C@@H](O)[C@@H]1F,"ADORA1 (Homo sapiens, UniProt P30542)","ligand displacement, radioligand",,cell membranes,0.274
CCCN(CCC1(O)CC(NS(=O)(=O)c2ccc(F)c(F)c2)C1)[C@H]1CCc2nc(N)sc2C1 (stereo in doubt),"dopamine D1-like receptor, rat",radioligand binding,rat striatal membranes,with: [3H]SCH23390,76 ± 6.81
COc1ccccc1NC(=O)Cn1cc(CSc2nc3ccccc3c3nc(-c4ccccc4)c(-c4ccccc4)n23)nn1,alpha-glucosidase (Saccharomyces cerevisiae),"inhibitor, secondary plot",,,25
CCCN(CCC1(O)CC(NC(=O)c2ccc(OC)cc2)C1)[C@H]1CCc2nc(N)sc2C1 (stereo in doubt),Drd3,"ligand displacement, radioligand",,cell membranes,0.0007
CCCCC(=O)N(O)CCCP(=O)(O)O,DXR,"inhibitor, Lineweaver-Burk plot",,"with: DXP varied, NADPH 150 µM",0.86
CCCN(CCC1(O)CC(NS(=O)(=O)c2ccc(OC)cc2)C1)[C@H]1CCc2nc(N)sc2C1 (stereo in doubt),"dopamine D1-like receptor, rat",radioligand binding,rat striatal membranes,with: [3H]SCH23390,2.61 ± 0.255
O=C(O)[C@H]1NCC[C@@H]1[C@@H](C(=O)O)c1ccccc1,"NMDA receptor, rat",binding,cortical synaptosomes,with: [3H]-CGP 39653,> 100
O=C(c1ccc(SCCF)cc1)C1CCN(C2Cc3ccccc3CC2O)CC1 (racemic),"SIGMAR1 (Cavia porcellus, UniProt Q60492)","ligand displacement, radioligand",,,0.0167
O=C1OC2(c3ccccc31)c1cc(I)c(O)c(I)c1Oc1c2cc(I)c(O)c1I,"Dual specificity protein phosphatase 5 (Homo sapiens, UniProt Q16690)","enzyme activity, inhibitor, absorbance",,,10.9
NC(=O)NCCCc1c[nH]cn1,HRH1,"ligand displacement, radioligand",,cell membranes,> 10
CCCN(CC[C@]1(O)C[C@@H](NC(=O)c2cccc(F)c2)C1)[C@H]1CCc2nc(N)sc2C1 (relative stereo),Drd3,"ligand displacement, radioligand",,cell membranes,0.0019
Cc1cc(N/N=C/c2ccc([N+](=O)[O-])o2)c2cc3c(cc2n1)OCO3,APEX1,"enzyme activity, inhibitor",,,0.64
Cc1c(C(=O)NN2CCCCC2)nn(-c2ccc(Cl)cc2Cl)c1/N=N/c1cccc(Cl)c1Cl,"Cnr1 (Rattus norvegicus, UniProt P20272)",radioligand binding,rat brain membranes,"trans isomer, 454 nm light, with: [3H]CP55940 0.6 nM",0.602 ± 0.085
CC(C)[C@H](NC(=O)[C@H](CCC(N)=O)NC(=O)[C@H](CCC(=O)O)NC(=O)[C@H](CCC(N)=O)NC(=O)[C@H](CC(N)=O)NC(=O)[C@@H]1CCCCN1C(=O)CNC(=O)COCCOCCNC(=O)CNC(=O)[C@@H](N)Cc1ccccc1)C(=O)O,"FAP (Homo sapiens, UniProt Q12884)","enzyme activity, inhibitor, fluorescence",,pH 7.5,57.1
CNc1nc(C#CCCCC(=O)O)nc2c1ncn2[C@H]1C[C@H](OP(=O)(O)O)[C@]2(COP(=O)(O)O)C[C@H]12,"P2Y purinoceptor 1 (P2RY1, Homo sapiens, UniProt P47900)","ligand displacement, radioligand",,cell membranes,0.376
Cc1cc(N/N=C/c2ccc3c(c2)OCO3)c2cc3c(cc2n1)OCO3,APEX1,"enzyme activity, inhibitor",,,0.19
CCCCCCCCCCCO,MSP,"binding, fluorescence displacement",,with: 1-AMA 2 µM,0.36
CC(C)[C@H](NC(=O)[C@H](CCCNC(=N)N)NC(=O)[C@@H](NC(=O)[C@H](CO)NC(=O)[C@H](Cc1ccccc1)NC(=O)[C@@H](N)CC(=O)O)[C@@H](C)O)C(=O)O,Na(+)/H(+) exchange regulatory cofactor NHE-RF2 PDZ domain 2,fluorescence polarization competition,,with: FITC-labelled LPA2 peptide tracer,52.1 ± 5.3
c1ccc(-c2cc[nH]n2)cc1,"CYP2E1 (Oryctolagus cuniculus, UniProt P08682)",inhibitor,,"pH 7.4, 37 °C, catalytic site, CPR-K56Q and cytochrome b5, with: 4-nitrophenol",19
CCCN(CCC1(O)CC(NS(=O)(=O)c2cccc(F)c2)C1)[C@H]1CCc2nc(N)sc2C1 (stereo in doubt),"dopamine D1-like receptor, rat",radioligand binding,rat striatal membranes,with: [3H]SCH23390,117 ± 10.2
N=C(N)NCCCCCCCCNC(=N)NCCCc1c[nH]cn1,HRH1,"ligand displacement, radioligand",,cell membranes,> 3.16
CC(=O)N(C/C=C/P(=O)(O)O)OCc1ccc(-c2ccccc2)cc1,DXR,"inhibitor, Lineweaver-Burk plot",,"with: DXP varied, NADPH 150 µM",0.719
COc1cc(-c2nc3ccccc3[nH]2)ccc1OCc1cn(CC(=O)Nc2cnc(-c3ccccc3)s2)nn1,α-glucosidase,"inhibitor, Lineweaver-Burk secondary plot",,,6.3
Cc1nc(N)sc1CCCNC(=N)NCCCCCCCCCCCCN,HRH1,"ligand displacement, radioligand",,cell membranes,0.501
O=C(Cc1cccs1)N[C@H](B(O)O)c1cccc(C(=O)O)c1,"Beta-lactamase ADC-7 (Acinetobacter baumannii, UniProt Q6DRA1)",inhibitor,,"5 min preincubation, pH 7.4, room temperature, with: nitrocefin",0.022 ± 0.002
[Cl-].[K+],"Homoisocitrate dehydrogenase, mitochondrial (Saccharomyces cerevisiae S288c, UniProt P40495)","enzyme activity, inhibitor, absorbance",,,90000
CCCN(CCC1(O)CC(NC(=O)c2ccccc2OC)C1)[C@H]1CCc2nc(N)sc2C1 (stereo in doubt),"dopamine D1-like receptor, rat",radioligand binding,rat striatal membranes,with: [3H]SCH23390,43.5 ± 0.711
COc1ccccc1C1C(C(=O)c2ccc(C)cc2)=C(O)C(=O)N1CC(C)O (centres unmarked),"FPR1 (Homo sapiens, UniProt P21462)",ligand displacement in cells,,,10.4

# For quick reference, copied from above:
SMILES,target,assay,system,conditions,Ki [µM]
Cc1cc(N/N=C/c2ccc3c(c2)OCO3)c2cc3c(cc2n1)OCO3,APEX1,"enzyme activity, inhibitor",,,0.19
CCCCCCCCCCCO,MSP,"binding, fluorescence displacement",,with: 1-AMA 2 µM,0.36
CC(C)[C@H](NC(=O)[C@H](CCCNC(=N)N)NC(=O)[C@@H](NC(=O)[C@H](CO)NC(=O)[C@H](Cc1ccccc1)NC(=O)[C@@H](N)CC(=O)O)[C@@H](C)O)C(=O)O,Na(+)/H(+) exchange regulatory cofactor NHE-RF2 PDZ domain 2,fluorescence polarization competition,,with: FITC-labelled LPA2 peptide tracer,52.1 ± 5.3
